Results from different studies.
Parts stem from different laboratories: compare values within a part only.

Series 1
Target: Histone acetyltransferase KAT6A, winged helix 1, GST fusion (KAT6A, Homo sapiens, UniProt Q92794, residues 1-85)
Technique: protein binding microarray
Form: double-stranded DNA, one strand shown
Sample: in vitro
Tested at: not given
Setting: 8-mer, flanks averaged, mean of 2 arrays, mostly near background
Reference: not given
Direction: higher = stronger binding
Quantity: E-score
Construct (chain): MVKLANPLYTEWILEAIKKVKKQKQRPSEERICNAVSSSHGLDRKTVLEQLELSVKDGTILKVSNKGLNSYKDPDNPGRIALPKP
CTACAAGC: -0.00605
ACAGCTGA: -0.189
AATATGTG: -0.131
CTCTATCA: -0.0368
CATAGTCA: -0.181
ACTACCTG: -0.127
CGGCGTAG: 0.278
GCTTGACA: -0.095

Series 2
Target: Replicase polyprotein 1ab, nsp13 helicase (rep, Severe acute respiratory syndrome coronavirus 2, UniProt P0DTD1)
Action: inhibitor
Tested at: 20 µM
Quantity: inhibition
CCOc1ccc2ccccc2c1C(=O)N[C@@H]1C(=O)N2[C@@H]1SC(C)(C)[C@@H]2C(=O)O: 5.8%
CC(C)c1cc(C(=O)N2Cc3ccc(CN4CCN(C)CC4)cc3C2)c(O)cc1O: -0.73%
O=C(NCCCN1CCCCCC1)C(c1ccccc1)C1CCCCC1 (stereo not shown): -3.39%
N[C@@H](CSC(c1ccccc1)(c1ccccc1)c1ccccc1)C(=O)O: 0.67%
CC(C)n1nc(-c2ccc3oc(N)nc3c2)c2c(N)ncnc21: 1.71%
CCCOc1ccc2c(c1)CC[C@@H]1[C@@H]2CC[C@]2(C)[C@@H](OC)CC[C@@H]12: 5.89%
CC(C[N+](C)(C)C)OC(N)=O (stereo not shown): 1.61%
COc1ccc2c(O[C@@H]3C[C@H]4C(=O)N[C@]5(C(=O)NS(=O)(=O)C6CC6)C[C@H]5/C=C\CCCCN(C)C(=O)[C@@H]4C3)cc(-c3nc(C(C)C)cs3)nc2c1C: 2.08%
CC(C)c1ccc2c(c1)CC[C@H]1[C@](C)(CN)CCC[C@]21C: -0.11%
O=C(CC(c1ccccc1)c1ccccc1)N1CCN(C(c2ccccc2)c2ccccc2)CC1: -1.87%
Cc1ccccc1/N=N/c1ccc(/N=N/c2c(O)ccc3ccccc23)c(C)c1: 6.3%
CCCN(CCC)[C@@H]1CCc2c(OC)cccc2[C@@H]1C: 2.08%
O=C(O)CCCc1ccccc1: 4.99%
CC(C)(C)C(=O)OCOC(=O)[C@@H]1N2C(=O)[C@@H](NC(=O)[C@H](N)c3ccccc3)[C@H]2SC1(C)C: -0.19%

Series 3
Target: Interferon regulatory factor 3, full length, phosphomimetic (IRF3, Homo sapiens, UniProt Q14653, residues 1-427, S386D/S396D/S398D/S402D/T404D/S405D)
Technique: protein-binding microarray
Form: double-stranded DNA, one strand shown
Sample: in vitro
Tested at: 2540 nM top
Setting: 60-bp whole probe
Together with: salmon DNA 0.4 mg/ml
Reference: random background probes
Direction: higher = stronger binding
Quantity: fitted relative affinity
Constant ends, left off below: GCCTAGCAC … GTGCTAGGTCTTGATTCGCTTGACGCTGCTG
Target sequence (chain): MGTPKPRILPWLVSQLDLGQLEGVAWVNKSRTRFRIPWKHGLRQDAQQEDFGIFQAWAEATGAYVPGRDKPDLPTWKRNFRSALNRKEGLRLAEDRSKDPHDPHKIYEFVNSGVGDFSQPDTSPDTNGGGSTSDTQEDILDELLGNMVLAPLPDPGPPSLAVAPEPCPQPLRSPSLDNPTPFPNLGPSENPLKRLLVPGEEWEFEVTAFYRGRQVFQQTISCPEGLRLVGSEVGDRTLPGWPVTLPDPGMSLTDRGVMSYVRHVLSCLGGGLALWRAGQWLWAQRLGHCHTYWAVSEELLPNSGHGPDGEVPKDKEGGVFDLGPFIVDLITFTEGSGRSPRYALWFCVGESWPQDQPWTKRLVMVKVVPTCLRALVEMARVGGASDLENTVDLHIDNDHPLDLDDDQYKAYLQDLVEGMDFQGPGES
TTAGATCTAAGTATCGATTA: 0.549 z-score
GGCGGACTGGGTATCGGGAC: -0.562 z-score
TCATATACACTTATGACACT: 0.882 z-score
GACGATATCAGTTTCGAAAC: 4.6 z-score
CGAGTTTCCATTTTCTGAAT: 8.8 z-score

Mixed results
O=c1sn(-c2cccc3ccccc23)c(=O)n1Cc1ccccc1 — inhibition (Replicase polyprotein 1ab, 3C-like proteinase (rep, Middle East respiratory syndrome-related coronavirus, UniProt K9N7C7); enzyme activity; 10 µM): 22%

Repeated from above (series 3):
GACGATATCAGTTTCGAAAC: 4.6 z-score
TTAGATCTAAGTATCGATTA: 0.549 z-score
